Measurements collected from several papers.
“And” joins repeats or separate records; there may be more than shown. ± marks the error that the study gave.

Structure (SMILES) | test | system | conditions | measurement | result
CC[C@H](C)[C@H](NC(=O)[C@H](Cc1ccccc1)NC(=O)[C@H](CCC(=O)O)NC(=O)[C@H](CCCCNC(=O)COCCOCCNC(=O)COCCOCCNC(=O)CC[C@H](NC(=O)CCCCCCCCCCCCCCCCC(=O)O)C(=O)O)NC(=O)[C@H](C)NC(=O)[C@H](C)NC(=O)[C@H](CCC(N)=O)NC(=O)CNC(=O)[C@H](CCC(=O)O)NC(=O)[C@H](CC(C)C)NC(=O)[C@H](Cc1ccc(O)cc1)NC(=O)[C@H](CO)NC(=O)[C@H](CO)NC(=O)[C@@H](NC(=O)[C@H](CC(=O)O)NC(=O)[C@H](CO)NC(=O)[C@@H](NC(=O)[C@H](Cc1ccccc1)NC(=O)[C@@H](NC(=O)CNC(=O)[C@H](CCC(=O)O)NC(=O)C(C)(C)NC(=O)[C@@H](N)Cc1cnc[nH]1)[C@@H](C)O)[C@@H](C)O)C(C)C)C(=O)N[C@@H](C)C(=O)N[C@@H](Cc1c[nH]c2ccccc12)C(=O)N[C@@H](CC(C)C)C(=O)N[C@H](C(=O)N[C@@H](CCCNC(=N)N)C(=O)NCC(=O)N[C@@H](CCCNC(=N)N)C(=O)NCC(=O)O)C(C)C | – | healthy men and women | oral, 14 mg once daily, with SNAC, geometric mean | Cmax at steady state | 28.4 nM
NC(=O)[C@H]1CCN(c2ncnc(N)c2F)C[C@@H]1N1CCC[C@@H](Nc2cc(Cl)cc(C(F)(F)F)c2)C1=O | – | B-cell malignancy patients | oral, 328 mg twice daily, dose | grade ≥3 hypocalcaemia | 0%
CC(C)C[C@H](NC(=O)[C@H](CCCCN)NC(=O)OCC1c2ccccc2-c2ccccc21)C(=O)N[C@H](C(=O)N[C@@H](Cc1ccccc1)C(=O)N[C@@H](Cc1ccccc1)C(=O)N[C@@H](CCCCN)C(=O)NCC(=O)N[C@@H](Cc1ccccc1)C(=O)N[C@@H](C)C(=O)N[C@@H](Cc1c[nH]c2ccccc12)C(=O)N[C@@H](CC(N)=O)C(=O)N[C@H](C(=O)N[C@H]1CSSC[C@@H](C(=O)N[C@@H](Cc2c[nH]cn2)C(=O)N[C@@H](CCCNC(=N)N)C(=O)N[C@@H](CCCNC(=N)N)C(=O)N[C@@H](C)C(=O)N[C@@H](CC(N)=O)C(N)=O)NC(=O)[C@H](C(C)C)NC(=O)[C@H](CCCNC(=N)N)NC(=O)[C@H](C(C)C)NC(=O)CNC(=O)[C@H](CC(N)=O)NC(=O)[C@H](CCCNC(=N)N)NC(=O)[C@H](Cc2ccc(O)cc2)NC(=O)[C@H](C(C)C)NC1=O)C(C)C)C(C)C | – | ICR mouse, blood | intramammary, 5 mg/kg, day 5, 3 d dosing | creatinine | 85.5 ± 3.38 µmol/L
CC(=O)c1c(C)c2cnc(Nc3ccc(C4CCN(CCS(C)(=O)=O)CC4)cn3)nc2n(C2CCCC2)c1=O | – | HR+/HER2- advanced breast cancer patients | oral, dose not given, grade 3/4,, total | patients with Neutropenia | 65.4%
COc1cc(N2CCC(N3CCN(C)CC3)CC2)ccc1Nc1ncnc(Nc2ccccc2S(=O)(=O)C(C)C)n1 | item: Nausea | Japanese patients with solid tumours | oral, dose not given, all grades | treatment-emergent adverse events | 8 number (percent)
CCc1ccc(CC/C=C/c2ccc3c(c2)C(=O)CC3)cc1 | – | Sprague-Dawley rat, male | oral, 120 mg/kg/day, 14 days | AST serum activity | 137 U/L
CN1CCN(S(=O)(=O)c2cc([N+](=O)[O-])ccc2N(CCOS(C)(=O)=O)CCOS(C)(=O)=O)CC1 | – | NOD/SCID mouse, naive, blood | intraperitoneal, 18.8 mg/kg, week 4 | hemoglobin | 166 g/L and 148 g/L and 170 g/L and 172 g/L
O=S(=O)(Nc1ccccc1)c1ccc(NC(=S)Nc2ccccc2)cc1 | item: TRIG | male mouse, blood | oral, 80 mg/kg daily, 14 days | blood chemistry level | 174 mg/dL
CO[C@H]1C[C@@H]2CC[C@@H](C)[C@@](O)(O2)C(=O)C(=O)N2CCCC[C@H]2C(=O)O[C@H]([C@H](C)C[C@@H]2CC[C@@H](OC(=O)NCCOCCOCCOCCOCCOCCOCCOCCOCCC(=O)N3CCc4cc(Cn5nc(-c6ccc7oc(N)nc7c6)c6c(N)ncnc65)ccc4C3)[C@H](OC)C2)C[C@@H](O)[C@H](C)/C=C(\C)[C@@H](O)[C@@H](OC)C(=O)[C@H](C)C[C@H](C)/C=C/C=C/C=C/1C | phase 1 dose escalation, item: nausea | advanced solid tumour patients | intravenous, 10 mg weekly, grade ≥3 | TRAE incidence | 0%
C=CCNc1c(O)cc2c(O)c1C[C@@H](C)C[C@H](OC)[C@H](O)[C@@H](C)/C=C(\C)[C@H](OC(N)=O)[C@@H](OC)/C=C\C=C(/C)C(=O)N2 | item: first-degree AV block | patients with unresectable or metastatic GIST, STS or other tumours | intravenous, 500 mg/m^2 | treatment-emergent adverse events | 57%
CN1CC[C@@H](c2c(O)cc(O)c3c(=O)cc(-c4ccc(C(F)(F)F)cc4Cl)oc23)[C@@H]1CO | item: Vomiting | AML | oral, 100 mg, intermittent dosing | patients with adverse event | 0%
C=CC(=O)N1CC[C@H](n2nc(C#Cc3cc(OC)cc(OC)c3)c3c(N)ncnc32)C1 | – | human patients | oral, dose not given, QD regimen, adverse drug reaction, added: sevelamer hydrochloride | decreased appetite, grade ≥3 | 4.5%
C[C@]1(CO)Cc2ncn(-c3ccc(C#N)c(Cl)c3)c2C(=O)O1 | – | Japanese subjects | 20 mg single dose | drug-related adverse event incidence | 33.3%
Cc1cc(C)c(CNC(=O)c2cc(Cl)c3c(c2C)O[C@@](C)([C@H]2CC[C@H](N(C)C)CC2)O3)c(=O)[nH]1 | – | human, relapsed/refractory NHL | concentration not given, all TEAEs, grade 5 | Hypotension incidence | 0%

For quick reference, copied from above:
Structure (SMILES) | test | system | conditions | measurement | result
C=CCNc1c(O)cc2c(O)c1C[C@@H](C)C[C@H](OC)[C@H](O)[C@@H](C)/C=C(\C)[C@H](OC(N)=O)[C@@H](OC)/C=C\C=C(/C)C(=O)N2 | item: first-degree AV block | patients with unresectable or metastatic GIST, STS or other tumours | intravenous, 500 mg/m^2 | treatment-emergent adverse events | 57%
